Published values pooled from the literature.
Numbered parts are unrelated; each lists some results of a single study.

Set 1 — technique: universal PBM; molecule type: double-stranded DNA, one strand shown; medium: in vitro; concentration: 600 nM; reading: higher = stronger binding; measurement: E-score
Target: Sal-like protein 4, full length isoform A (SALL4, Homo sapiens, UniProt Q9UJQ4, residues 1-1053)
Chain of UniProt Q9UJQ4 (whole entry, looked up): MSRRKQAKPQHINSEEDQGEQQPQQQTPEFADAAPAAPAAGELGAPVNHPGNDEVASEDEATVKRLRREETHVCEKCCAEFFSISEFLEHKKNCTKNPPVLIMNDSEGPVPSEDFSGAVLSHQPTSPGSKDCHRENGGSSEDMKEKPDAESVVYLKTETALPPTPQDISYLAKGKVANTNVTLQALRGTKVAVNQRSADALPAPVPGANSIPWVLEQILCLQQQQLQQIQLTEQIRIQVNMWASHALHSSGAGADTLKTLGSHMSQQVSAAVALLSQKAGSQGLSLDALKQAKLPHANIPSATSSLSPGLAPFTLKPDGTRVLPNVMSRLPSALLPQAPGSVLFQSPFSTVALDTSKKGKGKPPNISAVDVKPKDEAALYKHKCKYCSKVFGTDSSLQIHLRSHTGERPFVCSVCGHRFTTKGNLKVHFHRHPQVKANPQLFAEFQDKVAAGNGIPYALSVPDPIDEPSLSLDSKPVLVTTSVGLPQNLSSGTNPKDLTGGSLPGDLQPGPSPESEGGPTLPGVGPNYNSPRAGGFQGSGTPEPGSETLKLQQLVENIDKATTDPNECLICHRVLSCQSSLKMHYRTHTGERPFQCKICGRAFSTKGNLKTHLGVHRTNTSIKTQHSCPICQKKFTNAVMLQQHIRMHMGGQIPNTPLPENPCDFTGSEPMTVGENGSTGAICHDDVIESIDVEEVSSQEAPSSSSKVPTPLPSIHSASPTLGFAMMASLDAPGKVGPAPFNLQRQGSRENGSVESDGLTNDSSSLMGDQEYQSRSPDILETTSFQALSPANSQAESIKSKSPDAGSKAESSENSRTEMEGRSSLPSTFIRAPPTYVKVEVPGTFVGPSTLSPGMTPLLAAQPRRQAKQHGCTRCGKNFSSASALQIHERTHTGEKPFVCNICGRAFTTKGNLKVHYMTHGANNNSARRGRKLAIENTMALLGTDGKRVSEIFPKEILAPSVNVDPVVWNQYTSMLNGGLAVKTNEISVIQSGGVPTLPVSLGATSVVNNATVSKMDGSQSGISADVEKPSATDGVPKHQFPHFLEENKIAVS
Notes: 8-mer, flanks averaged, mean of replicates
CGGCGGTA: -0.256
GGGTACCC: -0.371
TAAGGCGA: 0.0389
CATAAAGG: 0.248

Set 2 — technique: aptamer microarray, sandwich; molecule type: DNA with 2'F-ANA; medium: in vitro; concentration: 200 nM; with: Cy3 exosite-II aptamer, 400 nM; reading: higher = stronger binding; measurement: mean fluorescence intensity
Target: Prothrombin, mature alpha-thrombin (F2, Homo sapiens, UniProt P00734)
Notes: whole 15-mer aptamer, many near background
GGTTGGTGTGGTTGG (2'F-ANA at 1 2 3 5 7 10 11 14 15): 47.3 a.u.
GGTTGGTGTGGTTGG (2'F-ANA at 6 8 9 10 11 14): 100 a.u.
GGTTGGTGTGGTTGG (2'F-ANA at 1 3 4 7 10 14 15): 55.4 a.u.
GGTTGGTGTGGTTGG (2'F-ANA at 1 3 5 6 8 10 14): 48.4 a.u.

Set 3 — technique: protein-binding microarray; molecule type: double-stranded DNA, one strand shown; medium: in vitro; concentration: 940 nM top; notes: 60-bp whole probe; with: salmon DNA 0.4 mg/ml; reference: random background probes; reading: higher = stronger binding; measurement: fitted relative affinity; constant ends, left off below: GCCTAGCAC … GTCTTGATTCGCTTGACGCTGCTG
Target: Interferon regulatory factor 5, full length, phosphomimetic (IRF5, Homo sapiens, UniProt Q13568-2, residues 1-514, S451D/S453D/S456D/S462D)
TTAGGTTTTGGTTTCGGTTAGTGCTAG: 12.3 z-score
TTAGAACTGAGACTGGAGTAGTGCTAG: -0.0438 z-score
GACGATTTCGGGTATCGAGTCGTGCTA: 2.45 z-score
GAAAAATCTGGAACTAACAGGTGCTAG: -0.373 z-score
GACGTACTGGACTTTCGGGACGTGCTA: 0.404 z-score
TTAAGTTTCCTTTTCCTTTAGTGCTAG: 2.52 z-score

Single results of other studies
PhoQ, residues 284 288 289 292 302 303 SLGVVW — fold induction (PhoP, residues 12 14 15 18 19 LWHCS (Escherichia coli, UniProt P23836); Sort-seq, measured: YFP reporter; E. coli; PhoQ-PhoP variant library, with: 10 µM Mg2+; reference: high Mg2+ state, higher = stronger signaling): 12.2

For quick reference, copied from above (set 3):
GACGTACTGGACTTTCGGGACGTGCTA: 0.404 z-score
TTAAGTTTCCTTTTCCTTTAGTGCTAG: 2.52 z-score
